# Experimental data pooled from the literature.
# Numbered parts are unrelated; each lists some results of a single study.

# Sample 1
# Target: Histone acetyltransferase KAT6A, winged helix 2, GST fusion (KAT6A, Homo sapiens, UniProt Q92794, residues 85-181)
# Method: protein binding microarray
# Form: double-stranded DNA, one strand shown
# Matrix: in vitro
# Concentration: not given
# Notes: 8-mer, flanks averaged, mean of 2 arrays, mostly near background
# Reference: not given
# Direction: higher = stronger binding
# Target sequence (chain): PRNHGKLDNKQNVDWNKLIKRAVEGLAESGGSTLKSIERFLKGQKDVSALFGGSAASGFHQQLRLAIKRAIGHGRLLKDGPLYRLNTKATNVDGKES
Strand,E-score
ATACAGGC,-0.151
CGGTTCTA,0.0328
CAACTAGC,0.148
ACCAAGAT,-0.0615
CTCAGATA,-0.0321
CTAGATTA,0.0671
AAATTGCG,0.0185
CATTATGC,0.0194
TCCTTACA,-0.254
CCAGAGAC,0.0122
CCCTTGAA,-0.168
CCAACGGA,0.0878
CGCACGAC,0.0352
AGTCCTTG,-0.044
ATAGTTTG,0.0149
CATCTCGC,0.0658
TCAGGGAA,-0.00759
TTCAAGAA,0.201
AATCGCAT,0.0655
AGTTAGCC,-0.179
GAGAGAAC,0.0804
GGTTATAA,-0.121
AGACTACG,-0.141
GAATTCCC,0.0442
TCGATGCA,-0.144

# Sample 2
# Target: RING finger protein unkempt homolog, zinc fingers 1-6, GST-SBP tag (UNK, Homo sapiens, UniProt Q9C0B0, residues 30-357)
# Chain of UniProt Q9C0B0 (30-357, looked up): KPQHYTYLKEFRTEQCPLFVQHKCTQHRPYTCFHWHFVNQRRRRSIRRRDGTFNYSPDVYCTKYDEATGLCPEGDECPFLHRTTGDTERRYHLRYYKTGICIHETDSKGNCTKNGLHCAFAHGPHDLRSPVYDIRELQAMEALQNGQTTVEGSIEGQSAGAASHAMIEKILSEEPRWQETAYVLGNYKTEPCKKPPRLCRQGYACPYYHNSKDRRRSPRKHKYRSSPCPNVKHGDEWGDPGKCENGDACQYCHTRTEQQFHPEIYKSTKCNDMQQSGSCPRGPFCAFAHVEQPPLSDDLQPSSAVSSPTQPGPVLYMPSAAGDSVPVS
# Method: RNA Bind-n-Seq
# Form: RNA
# Matrix: in vitro
# Concentration: not given
# Notes: RNA with constant flanks, human-mouse chimeric sites, ends assumed
# Reference: input RNA pool
# Direction: higher = stronger binding
# Constant ends, left off below: GGGAGUUCUACAGUCCGACGAUC … CAACAGAGGAUUGAGCAUCA
Strand,bound/input enrichment [ratio]
CUCGGCACUGGUACCCUUUACAUCGCGGAGAGCCGCCUGUCUUGGUUAGAUGGUUCGGGAUUAGGAUUCUCACUGGAAUACCCCACCAUUAGUUUACAUGCGGUGUCCAGGGAUCCAAAC,0.726
GUUCGGCUUUGGGAUCAUGCUACUAUGACAGAAGUGAAAUCUCUGAAUUUUAAUAUGUCUGUUAGCAGCAUGGAGUAUAUUCCUGAAGGAGAGAUUUUGGUUAUUACUUAUGGACGAUCU,0.186
UACUGCUGCUUUCAACUUAAAUCACUGAGGCAUCUCUACUGUUCUGUGAGCAUCAGGACUGUAGCGCUUGCCACCACCAUGAGAGUUCAGAAGCAGCCUUUCUGUGGAGGGUGGGAAUGA,0.125
UCUGAGGUACCACUGAAGAGACCUUAAAAGAAUCAUUUGAGGGCUCUGUUCGUGCAAGAAUAGUCACUGAUCGGGAAAACUGGGUCCCCAAAGGGUUUGGUUUUGUAGACUUUAAUAGUG,0.714
AAAGAACUACUGAGGCAAGGCAGCAAAUUUAGGAGAGACAUUUCAACACUAUUAAUAGAGUUAGGAUUCCAAAUUAAAAAGAAAACUAAGACAUUAUAUAUCAACAAAGCCAAUGUGUGG,13.2
AUGGAGAAGGAUUCUCUGCCCCGCUUUGUGCGCUCUGAAUUUUAUAAGGAGCUAAUCAAGUAGUCAUCUGGUCAGGCUUCCAAAAGUUGCCCUGUGAUAUUUCCUCCAUCCUUUGUAGCA,0.213
CUUUUUAAGAAGAUAUGUGAUGGGAUCUUUUAUACCCCUCAGUACUUAAAUCCUUCUGUAAUCAGCCUUUUGAAACAUAUGCUGCAGGUGGAUCCCAUGAAGAGGGCCACAAUCAAAGAU,0.22
GAGUCGAGCAAACUUGAAACAAUUCGUUAUCUUGCAGCCUCAGUGUUCACUUGCUUGGCGAUAGCAUAUUGGGAUUUUAGGUUCUGGAAGGAGAACUUUAAUGCUCACUGCCGCUGCUGC,0.596
AUAAAGGCUAUGUUGAGUGGUCCAGGUCAGUUUGCUGAGAACGAAACCAACGAGGUCAAUUUUAGAGAGAUCCCCUCACAUGUGCUAUCGAAAGUAUGCAUGUAUUUUACCUACAAGGUC,0.179
GGUGGGGUGGUCAUUGCCGUUUGAGCUGCUGAUUUUCAUGAGUCGCCCAUUCAGAACUCGUGUAGGGUUGACACUGUGGGGGGGUGGGGGAUCCAGCUUAUUCUUUUAUUUUCAAGUCCA,0.504
UAAGUCCUGUGCCAGCACUUCGCUCAUAAAGUUUUAAAUUCUGGACCAAUAGUGUUUAUCUUUAGAAUAUUGUAUCCAAUACUUUGCCUAGUAUGUAACUCAUGCUUACUGAUAAUAAAA,4.34

# Sample 3
# Target: Fragile X messenger ribonucleoprotein 1, C-terminal low-complexity region (Fmr1, Mus musculus, UniProt P35922)
# Method: RNA Bind-n-Seq
# Form: RNA
# Matrix: in vitro
# Concentration: 200 nM
# Notes: whole 134-nt RNA, ends assumed
# Added: 150 mM KCl
# Reference: input library
# Direction: higher = stronger binding
# Constant ends, left off below: GGGAGUUCUACAGUCCGACGAUC … UGGAAUUCUCGGGUGUCAAGG
Strand,log2 enrichment
CCUGUGCUACACAUCGUAUGUACCGAAUCGGGGAAAAAGGGGAAAAAAAGGGGAAAGGGGAAAGUAUUAUGUUACGCCGUUCGGAUCUGC,0.236
GUCCUGUGCUACACAUCGUAUGUACCGAAUCGGUUUUUGGGUUUUUGGGGUUUUUGGGGAAAGUAUUAUGUUACGCCGUUCGGAUCUGCA,-0.0518
UAACUUUAGAGGAGGAUCUGAUUGAUAUGGCAGUGGACGUGGAUUUGGGGAUGGCUAUAAUGGGUAUGGAGGAGGACCUGGAGGUGGCAA,0.356
UCAAGUCCUGUGCUACACAUCGUAUGUACCGAAUCGGGUUUUUGGGAGGGUGGGAAAGUAUUAUGUUACGCCGUUCGGAUCUGCACUUCC,1.17
AGUCCUGUGCUACACAUCGUAUGUACCGAAUCAAAGUGUGUGUGUGUGUGUGUGUAAAAAAGUAUUAUGUUACGCCGUUCGGAUCUGCAC,0.101
ACCAUGCAGGUGGGCAUCUUUGGGAAGUGGGGCAAGGGGGGGAUAGGGAGGGGGGUAACACUUUGGGAACAGGUGGAAACAGGUCGUUUC,0.445
AAGUCCUGUGCUACACAUCGUAUGUACCGAAUCGGAAAAAGGUUUGGUUUUUUUGGAAAGUAUUAUGUUACGCCGUUCGGAUCUGCACUU,-1.03
UGGCGCCGUUCGACACCAGGCGGAUCCGCUCUGCAGCACGAACCCAUCUCCAGCCGCAGCCGCAGCCGCCGCCCGGGCCGAGGAGCAGCC,-0.239
UGGGAGGUGGAUUUUGUUUAUUUUUUUAGCUCAUUUCCAGGGGUGGGAAUUUUUUUUUAAUAUGUGUCAUGAAUAAAUUUGUUUUUGAAA,0.369
CCUCAAGUCCUGUGCUACACAUCGUAUGUACCGAAUCGGUGGAAAAAGGAGGAAAGUAUUAUGUUACGCCGUUCGGAUCUGCACUUCCAG,0.261
CACAGACAACACGCACCCACACAGACACAGAGGGAAGGGGUUAAAAUGGGGACAGGGUGCACAGCAGGGCGGGGUAGGACCCCAGCCCCU,0.593
CACAGACAACACGCACCCACACAGACACAGAGGGAAGGGGUUGGGCUGGGGACAGGGUGCACAGCAGGGCGGGGUAGGACCCCAGCCCCU,1.26
GCAGGAAGUAAAAACAAAUGGAAAUGCUUCGGAUAGUGGCAGGGGUGGGGGUUGCUAAGGAAAGGGUGGGAUGGGAGUGGGUAUAGAGUU,-0.825
ACCAUGCAGGUGGGCAUCUUUGGGAAGUGGGGCAAGGGGGGGAUAGGGAGGGGGGUAACACUUUGGGAAAAAGUGGUCCCAGGUCGUUUC,0.953

# Sample 4
# Target: RNA binding protein fox-1 homolog 2, RRM domain, GST-SBP tag (RBFOX2, Homo sapiens, UniProt O43251-10, residues 100-194)
# Method: RNA Bind-n-Seq
# Form: RNA
# Matrix: in vitro
# Concentration: 365 nM
# Notes: natural RNA segment, single round, ends assumed
# Reference: no-protein control
# Direction: higher = stronger binding
# Constant ends, left off below: GGGAGUUCUACAGUCCGACGAUC … UGGAAUUCUCGGGUGCCAA
# Residues (chain): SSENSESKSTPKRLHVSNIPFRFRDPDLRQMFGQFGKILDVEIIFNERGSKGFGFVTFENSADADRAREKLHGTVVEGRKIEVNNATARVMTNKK
Strand,RBNS enrichment (R)
GAAUAUCCACCUUCAUUUCAACAGUUCCUUGGUUACACACUCAAUCUUUACGUUUGUACUGCUUACCUUUACUUUCUCCACAACAGAGACAAGCAGAUUGGUUGAACCUU,0.48
AUGGAACUAUGGGUUCUCUUCGCAAAGCCAAAGGAUAGUGUUUAACAAGCCAGCUGGCUUAUGCUGGUUCUCAGCUGUUUAAAAAAAAAAAAAAAAAGGAAUAGAAACAG,0.46
UUAAGUGAGAUGCACACAAAAAGCUCAGCACAGUGUCUGGCAUCUAAUAUGUGCAGGGCAGAUGUCACUACUGAAUAUCACAUCAAUGCUAGGGCUGUAUUUACUGUCAC,0.631
AUUUAUGUCUGCAUAUUCUUCUAGCUGAAUUUUUGAUUUUACUACAUUUGAUAUUUUUCUUUUUAGUUUCCUUGACUAAAGAGGUACAAUAUACUCUGAUCUACCCCUUA,0.493
CGCAUUUGUGUGUAUUAAUGCUGAAGAAUUAAAUGUUUAAAGAGUUUAAAUUUUGAAGGCGUUUGCUAUAUACAGUUGUCCUGCAUUAUUAUAAAGAGUUUUCAGGAAGU,0.783
GAGCAUCUGUGCACCCACUCUUCAGCCCCUACCCAUCUGCCACCUUGGUCUGACUUGGCCAUGGGAGCCUUUCCCAACCCAGUGUGGAAGGGAGUCGGGAGGGAAGGAAG,0.448
UUUGGUAGGAAAUUUUUGGGAGAUCUGAUUUUCUUAUCCAAGUUUUGUAAAUAGUUGUUAUUUCUAUAUUUGGAUUGGUGAAAGACCUCAAGUUUAUAUGUAAAGACAUA,0.572
CUUCAACUUACUUGUUCUAAGCACAGGGUUUUUUUUAUUUAGCAUCAAAGGACAUUUUUACUUUCUUGGAUUUAGAGCCAACAACUAGGAACGUACUUAUGUAGGACAGA,0.77
UUUUAGAAUAAACUCCUGCUUAUAGUAUACUACACAGUUCAAAAGAUGUUUAAAAUGCUUUUGUAUUUACUGCCAUGUAAUUGAAAUAUAUAGAUUAUUGUAACCUUUCA,0.985
GCGAGGUUAAAAAAAUGUGCCUCGUGGAUCUCCCUGUUUUAGUAACAUGGAGAGAAAAAGUCUACACGAAAAAGUGAACAAUUUAAUGAAGAUGAUUAGCCUUCCUUGAA,0.301
CUUAGAGUCAGUGAAGUUCUUGUGAUGUUUGUUAUGCUUGUAGAUUUUGGCAACUUGUAAAUAAUGUGUAUACCAAGUUUUUAUGAUUAAGGAAUCAAAUUUAUUGAAUU,1.38
UUUGAUAUUAUAUCUAGCUAUAAAUAAUACAUGACUAUCGUUUUCUAUUGAAUGUCAAAGACUUACUGGGUCUUUACACCUCUGUAAAGUGGAGGUUUUGGCAAUGAGCU,0.678
